Published values collected from several papers.
Each line is one published result; not all experiments were run side by side. Several values in a cell are separate wells, animals, samples, runs or records. Numbers after ± are the reported error.

The EC50 of `N#Cc1ccc(C[C@H](NC(=O)c2cc3cc([N+](=O)[O-])ccc3[nH]2)C(=O)N2CCc3ccccc32)cc1` is reported as greater than 50 µM (human neutrophils; calcium mobilization, agonist).
For `Nc1cccc2c1C(=O)N(C1CCC(=O)NC1=O)C2=O` (stereo not drawn), “surface marker level” read 58.1% (RPMI-8226; flow cytometry, measured: CD197; concentration not given; reference: comparator compound alone).
With `C#C[C@@]1(O)[C@@H](CO)O[C@@H](n2cc(I)c3c(N)ncnc32)[C@@H]1O` the TGI was -5.04 log M and -5.03 log M (NCI60 panel; cell growth; mean over panel).
Under cAMP level, `Nc1nc(C(F)(F)F)nc2c1nnn2C[C@H]1CN(Cc2nccs2)CCO1` is recorded as “increased” (SAOS-2; activator, GloSensor; concentration not given, with: PTH).
`c1ccc2[nH]ccc2c1` — result for “mRNA level, LS mean”: 5.93 counts per million (HCT-8; RNA-seq, measured: FLRT3; concentration not given).
With `Cc1ccc(NC(=O)[C@H]2CCCN(C(=O)c3c(C)cccc3F)[C@H]2c2ccc(NC3CCCC3)cc2)cc1C(F)(F)F` the neutrophil swelling was 1.24 fold change and 1.85 fold change and 1.21 fold change and 1.42 fold change (human peripheral blood neutrophils; flow cytometry FSC/SSC; 1 µM, with: C5a 100 ng/mL, MPO-ANCA immune complex; reference: unstimulated neutrophils).
With `COc1cnc2cccc(N3CCc4c(cc(Cn5ccnc5C)cc4-c4cn(C)nc4C(F)(F)F)C3=O)c2c1` the EC50 was greater than 30 µM (KP2; cell growth; 120 h).
`COc1c(C)c(OS(=O)(=O)c2ccc3ccccc3c2)c(C)c(O)c1C(=O)/C=C/c1ccccc1` gave a selectivity index of 1.44 (FaDu; SRB; reference: normal over FaDu IC50).
The toxicity of `COc1ccc(-n2nc(C(C)=O)s/c2=N\N=C(/C)c2ccc(NC(=O)c3ccccc3)cc2)cc1` is reported as 74.4% (HepG2; 1.25 µM).
Under “log2 fold change”, `Nc1ncnc2c1ncn2[C@@H]1O[C@H](CO)[C@@H](O)[C@H]1O` is recorded as 7.1 and 8.7 and 7.4 (activated human T cells; measured: carbamoyl aspartate; 50 µM; reference: DMSO).
For `O=S(=O)(O)O`, the Km was 13.7 mM (human neutrophils; anion exchange, substrate, sulfate influx; external binding site, with: Cl-).
The cell growth of `Cc1cc(C)n(-c2nc(-c3ccc(Cl)cc3)c3c(NC(=O)c4ccccc4)nnc-3[nH]2)n1` is reported as 77.8% (Malme-3M; SRB; 10 µM, NCI60 single-dose screen; reference: untreated).
For `CCn1cc(-c2cc(Cn3ccnc3)cc3c2CCN([C@H](c2cc(OC)ccn2)C2CC2)C3=O)c(C(F)(F)F)n1`, the EC50 was greater than 30 µM (HuCCT-1; cell growth, inhibitor; 120 h).
`CC(C)(C)c1nc(-c2cccc(NS(=O)(=O)c3c(F)cccc3F)c2F)c(-c2ccnc(N)n2)s1`: “late apoptotic cells” 0.22% (A2780/CP; annexin V/PI flow cytometry; concentration not given, 48 h; reference: untreated).
For `COc1c(C)c(OC)c(C(=O)/C=C/c2ccccc2)c(OC)c1C`, the selectivity index was 0.97 (FaDu; SRB; reference: normal over FaDu IC50).
`C[C@]12CC[C@@H]3c4ccc(O)cc4CC[C@H]3[C@@H]1CC[C@@H]2OC(=O)CCC1CCCC1` has a viability of 100% (MCF-10A; CellTiter-Glo; concentration not given; reference: normalised luminescence).
`CCCNC(=O)[C@H]1O[C@@H]1C(=O)N[C@H](C(=O)N1CCC[C@H]1C(=O)OC)[C@@H](C)CC` gave a phototoxicity index of 1 (MCF-10A; MTT; 72 h; reference: dark EC50 over light EC50).
`CSCC[C@H](NC(=O)[C@H](Cc1ccc(OS(=O)(=O)O)cc1)NC(=O)[C@@H](N)CC(=O)O)C(=O)NCC(=O)N[C@@H](Cc1c[nH]c2ccccc12)C(=O)N[C@@H](CCSC)C(=O)N[C@@H](CC(=O)O)C(=O)N[C@@H](Cc1ccccc1)C(N)=O` has a calcium response of 0.0956 a.u. and 0.0771 a.u. (HEK293T control virus; agonist, calcium mobilization; 400 nM, no receptor expressed; higher = more calcium release).
The Emax of `COc1cc(N2CCC(N3CCN(C)CC3)CC2)ccc1Nc1ncc(Cl)c(Nc2ccccc2P(C)(C)=O)n1` is reported as 100% (Ba/F3 EML4-ALK variant 1 S1206Y; cell viability).
`CCCCc1oc2ccccc2c1C(=O)c1cc(I)c(OCCN(CC)CC)c(I)c1`: “differentially expressed genes number” 602 (human embryonic stem cell aggregates; microarray; 4 µM, 120 h, fold change above 1.5).
`Cn1cc(-n2cnc3c(NCc4nc5cc(Cl)c(Cl)cc5[nH]4)nc(N4CCOCC4)nc32)cn1` has a luminescence signal of 149000 a.u. and 150000 a.u. and 148000 a.u. (MDA-MB-468; cell viability, CellCounting-Lite; 24.69 nM, 37 °C; higher = more viable cells).
Under neutrophil adhesion, `CN(C)C(=O)c1cc2cnc(Nc3ccc(N4CCNCC4)cn3)nc2n1C1CCCC1` is recorded as “decreased” (human neutrophils; bEnd.3 endothelial cells; 1 to 10 µM, with: fMLF).
For `Cn1cc(Nc2nccc(-c3ccc4c(c3)CN(C3COC3)CC[C@H]4NC(=O)c3cn(C(C)(C)C)nn3)n2)cn1`, “pathway activation z-score” read 1.13 (mouse splenic B cells; measured: Angiopoietin signalling; 30 mg/kg, IgD-activated in vivo; reference: vehicle, direction not given).
`C=CC1=C(C)c2cc3[n-]c(cc4nc(cc5[n-]c(cc1n2)c(C)c5C=C)C(C)=C4CCC(=O)O)c(CCC(=O)O)c3C.[Zn+2]` gave a fold change of 2.5 (SH-SY5Y; RNA-seq, measured: ANKRD1 mRNA; 5 µM, 5 h; reference: untreated cells).
`Cc1cc(Nc2ncc(Cl)c(Nc3ccccc3S(=O)(=O)C(C)C)n2)c(OC(C)C)cc1C1CCNCC1` — result for “log2 fold change”: -2.13 (CLB-BAR; phosphoproteomics LC-MS/MS, measured: RBM4 phosphorylation; 200 nM, 60 min; reference: untreated).
For `O=C(C[C@@H](C(F)F)n1ccc(F)n1)N1CCC(O)(Cn2cnc3c(cnn3-c3ccc(F)cc3)c2=O)CC1`, the apoptotic cells was 11.5% (CHP-212 resistant; annexin V/PI flow cytometry; 1 µM, 48 h).
`CCCCN1CCN(c2ccc3[nH]c(-c4ccc5[nH]c(-c6cc(OC)c(OC)c(OC)c6)nc5c4)nc3c2)CC1` gave a growth percent of 21.1% (Malme-3M; SRB; 10 µM, 48 h).
`C=C1CC[C@@H]2[C@](C)(CCC[C@]2(C)C(=O)O)[C@H]1CC/C(C)=C/CO` — result for calcium signalling: “no effect” (neuroblastoma cells; Fura-2 ratiometric; concentration not given).
With `CC/C(=N\NC(=O)C(C)Nc1ccccc1)c1ccc(O)c(C)c1O` (stereo not drawn) the protein level was 0.39 ± 0.14 (SK-OV-3; Western blot, measured: phospho-YAP; 10 µM, 6 h, 2D culture, unit not given; reference: total YAP).
`C/C=C/C/C=C/CCC(=O)[C@H]1O[C@H]1C(N)=O` gave a viability of 84.1% (MCF-10A; CellTiter-Glo; concentration not given; reference: normalised, mean of replicates).
`CC(C)(C)C(=O)Oc1ccc(S(=O)(=O)Nc2ccccc2C(=O)NCC(=O)O)cc1` has a neutrophil swelling of 3.28 fold change and 3.46 fold change and 2.98 fold change and 3.41 fold change (human peripheral blood neutrophils; flow cytometry FSC/SSC; 50 µM, with: C5a 100 ng/mL, MPO-ANCA immune complex; reference: unstimulated neutrophils).
For `Clc1nc(NCc2ccco2)c2[nH]cnc2n1`, the ΔPSI was -0.488 (FD iPSC-derived cardiomyocytes; alternative splicing, RNA-seq, measured: FSIP2 exon chr2(+):185799696-185809133; unit not given; reference: DMSO minus compound).
`CCn1cc(-c2cc(Cn3ccoc3=N)cc3c2CCN([C@@H](C)c2cc(OC)ccn2)C3=O)c(C(F)(F)F)n1` has an EC50 of 0.857 µM (GCIY; cell growth, inhibitor; 120 h).
For `O=C(Nc1nnc2n3c(nc(-c4ccc(Cl)cc4)c1-2)SCC3=O)c1ccccc1`, the cell growth was 99.7% (OVCAR-4; SRB; 10 µM, NCI60 single-dose screen; reference: untreated).
The Emax of `Cc1cc(Nc2ncc(Cl)c(Nc3ccccc3S(=O)(=O)C(C)C)n2)c(OC(C)C)cc1C1CCNCC1` is reported as 100% (Ba/F3 EML4-ALK variant 1 S1206Y; cell viability).
For `Cc1ccc(Cn2cc(COc3cccc(Cc4cnc(NC(=O)CSc5nc(C)cc(C)n5)s4)c3)nn2)cc1`, the inhibition was 32.9 ± 5.4% (PC-3M-luc; colony formation, colony forming; 25 µM).
With `COc1ccc(NC(=O)c2c(Nc3ccccc3)sc(C#N)c2NC(=O)CNc2ccc(Cl)cc2)cc1` the Bax level was 121 ± 13.6 pg/mL (HepG2; ELISA; IC50, 24 h).
For `CC(C)NCC(O)c1ccc(O)c(O)c1` (stereo not drawn), the sarcomere length was 1.8 µm (mouse ventricular cardiomyocytes; dose not given, 0.287 s).
For `CC(C)(C)c1cc(O)ccc1O`, “point of departure” read 162 µM (HepG2; extracellular flux, measured: oxygen consumption rate; 24 h, distribution mode 2).
`Cn1cc(-c2ccc(-c3cncc(Cl)c3N3CCC4(CCNC4=O)CC3)cc2)cn1` — result for “fold change in expression”: 3.98 (COLO 205; microarray, measured: OPTN; concentration not given, 6 h, gene set Optineurin; reference: untreated cells).
`NC1(c2ccc(-c3nc4ccn5c(=O)[nH]nc5c4cc3-c3ccccc3)cc2)CCC1` — result for “cells in G0/G1 phase”: 47.1% (MDA-MB-468; flow cytometry, PI staining; EC60 concentration, 72 h, DMSO 39.2).
For `CCc1cnc(N2CCC(c3nc(COc4ccc(-n5cnnn5)cc4)cs3)CC2)nc1`, “log2 fold change” read 0.758 (HEK293T; RNA-seq, measured: CEBPB mRNA; 10 µM, 6 h; reference: vehicle).
`O=C(/C=C/C=C/C=C/C1CCCCC1)NC1=C[C@@](O)(/C=C/C=C/C=C/C(=O)NC2=C(O)CCC2=O)[C@@H]2O[C@@H]2C1=O` has a GI50 of greater than 30 µM (jhom1; cell growth, inhibitor, CellTiter-Glo luminescence; 78 h; reference: day 0 cell count).
For `Cc1cc(C)nc(SCC(=O)Nc2ncc(Cc3cccc(OCc4cn(Cc5ccc(OCCN6CCOCC6)cc5)nn4)c3)s2)n1`, the inhibition was 7.2 ± 7.4% (PC-3M-luc; colony formation, colony forming; 1 µM).
With `Cn1c(Nc2nc3ccc(C(F)(F)F)cc3s2)nc2cc(C(=O)NCCOCCO)ccc21` the fold change was 2.76 (SH-SY5Y; RNA-seq, measured: EDN1 mRNA; 5 µM, 5 h; reference: untreated cells).
